Values quoted from earlier work as cited in several papers.
UniProt Q8N4C8, sequence (whole entry, looked up): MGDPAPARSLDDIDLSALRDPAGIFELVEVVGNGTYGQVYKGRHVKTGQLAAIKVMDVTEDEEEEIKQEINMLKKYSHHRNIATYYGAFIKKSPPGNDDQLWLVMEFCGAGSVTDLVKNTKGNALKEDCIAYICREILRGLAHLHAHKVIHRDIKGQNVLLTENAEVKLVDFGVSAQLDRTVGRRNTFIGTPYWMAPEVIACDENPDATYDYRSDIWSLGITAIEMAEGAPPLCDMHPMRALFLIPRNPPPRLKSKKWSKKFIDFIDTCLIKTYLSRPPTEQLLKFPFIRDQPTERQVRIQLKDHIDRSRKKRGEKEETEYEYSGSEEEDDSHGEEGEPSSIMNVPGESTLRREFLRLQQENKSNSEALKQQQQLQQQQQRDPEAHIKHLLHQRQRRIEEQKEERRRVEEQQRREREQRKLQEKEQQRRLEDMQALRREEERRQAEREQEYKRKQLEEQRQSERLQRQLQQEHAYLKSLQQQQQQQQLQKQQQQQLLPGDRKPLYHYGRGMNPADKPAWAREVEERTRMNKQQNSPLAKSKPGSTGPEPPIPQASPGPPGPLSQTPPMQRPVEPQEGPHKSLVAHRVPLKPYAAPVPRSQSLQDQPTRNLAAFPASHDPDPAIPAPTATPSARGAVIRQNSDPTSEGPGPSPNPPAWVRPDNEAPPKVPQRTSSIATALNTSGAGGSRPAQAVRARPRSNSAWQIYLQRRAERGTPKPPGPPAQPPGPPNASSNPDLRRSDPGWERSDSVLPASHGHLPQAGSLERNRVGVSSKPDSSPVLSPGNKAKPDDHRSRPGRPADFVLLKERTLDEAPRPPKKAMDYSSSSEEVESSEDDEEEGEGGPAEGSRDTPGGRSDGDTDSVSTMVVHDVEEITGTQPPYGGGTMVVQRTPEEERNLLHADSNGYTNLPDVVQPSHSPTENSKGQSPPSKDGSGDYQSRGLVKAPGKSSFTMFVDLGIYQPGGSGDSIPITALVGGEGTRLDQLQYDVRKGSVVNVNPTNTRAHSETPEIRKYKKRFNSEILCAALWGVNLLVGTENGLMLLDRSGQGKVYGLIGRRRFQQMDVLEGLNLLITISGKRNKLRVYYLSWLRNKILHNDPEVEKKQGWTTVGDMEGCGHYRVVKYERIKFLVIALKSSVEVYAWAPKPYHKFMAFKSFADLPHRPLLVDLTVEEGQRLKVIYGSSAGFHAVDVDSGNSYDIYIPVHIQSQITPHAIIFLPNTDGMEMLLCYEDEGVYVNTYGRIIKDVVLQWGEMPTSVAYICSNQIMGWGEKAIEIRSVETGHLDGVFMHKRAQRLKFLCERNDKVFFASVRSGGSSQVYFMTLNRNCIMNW

SMILES	target or system	assay	test system	conditions	scale	quantity	result
NC(=O)N1c2ccccc2CC(O)c2ccccc21 (centres unmarked)			healthy adult humans	oral		oral bioavailability	~100%
COCCc1ccc(OCC(O)CNC(C)C)cc1 (centres unmarked)			human			oral bioavailability	50%
Nc1ccn([C@H]2CC[C@@H](CO)O2)c(=O)n1			human			oral bioavailability	93%
Nc1cc(C(F)(F)F)c(-c2nc(N3CCOCC3)nc(N3CCOCC3)n2)cn1	MINK1 (Homo sapiens, UniProt Q8N4C8)	enzyme activity		10 µM	baseline: untreated	remaining activity	86%
CCc1cc2c(cc1CC)CC(NC[C@H](O)c1ccc(O)c3[nH]c(=O)ccc13)C2			human	oral		oral bioavailability	20%
Cc1[nH]c2ccccc2c1CCNCc1ccc(/C=C/C(=O)NO)cc1			human	oral, dose not given		oral bioavailability	21%
Nc1ccn([C@H]2CO[C@@H](CO)S2)c(=O)n1			human			oral bioavailability	80%
Cn1c(=O)c2c(ncn2C)n(C)c1=O			human			oral bioavailability	100%
CC(C)[C@H](N)C(=O)OCC(CO)OCn1cnc2c(=O)[nH]c(N)nc21 (some centres unmarked)			human			oral bioavailability	32%
COc1ccc2[nH]c([S+]([O-])Cc3ncc(C)c(OC)c3C)nc2c1 (centres unmarked)			human			oral bioavailability	40 to 60%
CC(C)(C)NCC(O)c1cc(O)cc(O)c1 (centres unmarked)			human	oral		oral bioavailability	11%

Some of these lines once more:
SMILES	target or system	assay	test system	conditions	scale	quantity	result
Nc1cc(C(F)(F)F)c(-c2nc(N3CCOCC3)nc(N3CCOCC3)n2)cn1	MINK1 (Homo sapiens, UniProt Q8N4C8)	enzyme activity		10 µM	baseline: untreated	remaining activity	86%
